{"data": "Results gathered from unrelated publications", "note": "Each numbered part is a random draw from the data of one study; scales do not carry over between parts.", "sequence of UniProt P37023 (whole entry, looked up)": "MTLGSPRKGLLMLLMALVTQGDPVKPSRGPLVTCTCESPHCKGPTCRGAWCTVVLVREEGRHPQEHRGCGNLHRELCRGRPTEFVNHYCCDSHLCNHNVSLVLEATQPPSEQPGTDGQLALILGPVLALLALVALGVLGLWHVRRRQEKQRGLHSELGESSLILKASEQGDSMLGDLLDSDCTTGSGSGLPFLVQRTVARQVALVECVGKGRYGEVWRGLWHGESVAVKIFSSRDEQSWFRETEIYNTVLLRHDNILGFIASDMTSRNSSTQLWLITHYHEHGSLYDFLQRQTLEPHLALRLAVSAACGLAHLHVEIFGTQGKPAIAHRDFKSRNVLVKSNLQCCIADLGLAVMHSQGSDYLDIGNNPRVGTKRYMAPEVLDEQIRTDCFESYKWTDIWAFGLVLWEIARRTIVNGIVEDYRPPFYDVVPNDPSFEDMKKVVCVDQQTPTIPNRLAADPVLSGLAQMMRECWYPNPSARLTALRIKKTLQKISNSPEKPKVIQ", "sequence of UniProt P41743 (whole entry, looked up)": "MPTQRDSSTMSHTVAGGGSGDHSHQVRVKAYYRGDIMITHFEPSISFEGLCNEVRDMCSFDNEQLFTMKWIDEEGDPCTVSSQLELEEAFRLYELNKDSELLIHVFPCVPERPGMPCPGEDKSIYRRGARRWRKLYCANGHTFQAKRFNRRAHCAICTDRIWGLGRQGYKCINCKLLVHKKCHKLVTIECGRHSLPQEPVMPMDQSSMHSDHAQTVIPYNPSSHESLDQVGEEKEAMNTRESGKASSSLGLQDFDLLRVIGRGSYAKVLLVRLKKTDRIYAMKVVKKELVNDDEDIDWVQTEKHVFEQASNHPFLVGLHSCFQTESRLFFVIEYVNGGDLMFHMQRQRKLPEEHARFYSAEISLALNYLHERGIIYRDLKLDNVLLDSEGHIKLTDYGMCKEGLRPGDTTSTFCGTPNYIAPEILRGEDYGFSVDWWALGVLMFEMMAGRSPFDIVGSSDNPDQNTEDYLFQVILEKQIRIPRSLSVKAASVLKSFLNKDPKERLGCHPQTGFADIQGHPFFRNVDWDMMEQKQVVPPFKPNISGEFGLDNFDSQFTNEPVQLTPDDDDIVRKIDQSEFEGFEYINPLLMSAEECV", "sequence of UniProt O14733 (whole entry, looked up)": "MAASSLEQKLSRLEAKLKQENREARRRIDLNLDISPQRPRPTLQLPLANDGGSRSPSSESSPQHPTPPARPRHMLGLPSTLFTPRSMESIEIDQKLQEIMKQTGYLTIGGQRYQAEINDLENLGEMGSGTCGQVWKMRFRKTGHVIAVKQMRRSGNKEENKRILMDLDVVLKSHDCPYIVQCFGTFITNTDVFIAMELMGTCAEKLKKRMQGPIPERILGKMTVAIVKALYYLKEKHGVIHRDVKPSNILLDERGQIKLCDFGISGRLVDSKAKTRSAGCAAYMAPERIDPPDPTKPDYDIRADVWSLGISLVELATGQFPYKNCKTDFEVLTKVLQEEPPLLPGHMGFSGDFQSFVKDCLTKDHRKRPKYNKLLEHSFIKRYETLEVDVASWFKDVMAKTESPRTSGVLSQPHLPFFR", "sequence of UniProt Q9UEE5 (whole entry, looked up)": "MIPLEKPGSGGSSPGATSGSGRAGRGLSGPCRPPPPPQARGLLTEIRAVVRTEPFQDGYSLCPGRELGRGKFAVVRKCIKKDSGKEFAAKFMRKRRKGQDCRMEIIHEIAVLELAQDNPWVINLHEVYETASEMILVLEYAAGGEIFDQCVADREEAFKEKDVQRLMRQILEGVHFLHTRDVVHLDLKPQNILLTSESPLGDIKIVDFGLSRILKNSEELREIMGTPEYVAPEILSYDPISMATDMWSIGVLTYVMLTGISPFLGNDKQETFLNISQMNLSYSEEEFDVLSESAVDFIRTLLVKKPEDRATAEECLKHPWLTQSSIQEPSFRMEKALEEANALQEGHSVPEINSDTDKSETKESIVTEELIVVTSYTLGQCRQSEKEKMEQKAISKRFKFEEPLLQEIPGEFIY", "sequence of UniProt Q8NE63 (whole entry, looked up)": "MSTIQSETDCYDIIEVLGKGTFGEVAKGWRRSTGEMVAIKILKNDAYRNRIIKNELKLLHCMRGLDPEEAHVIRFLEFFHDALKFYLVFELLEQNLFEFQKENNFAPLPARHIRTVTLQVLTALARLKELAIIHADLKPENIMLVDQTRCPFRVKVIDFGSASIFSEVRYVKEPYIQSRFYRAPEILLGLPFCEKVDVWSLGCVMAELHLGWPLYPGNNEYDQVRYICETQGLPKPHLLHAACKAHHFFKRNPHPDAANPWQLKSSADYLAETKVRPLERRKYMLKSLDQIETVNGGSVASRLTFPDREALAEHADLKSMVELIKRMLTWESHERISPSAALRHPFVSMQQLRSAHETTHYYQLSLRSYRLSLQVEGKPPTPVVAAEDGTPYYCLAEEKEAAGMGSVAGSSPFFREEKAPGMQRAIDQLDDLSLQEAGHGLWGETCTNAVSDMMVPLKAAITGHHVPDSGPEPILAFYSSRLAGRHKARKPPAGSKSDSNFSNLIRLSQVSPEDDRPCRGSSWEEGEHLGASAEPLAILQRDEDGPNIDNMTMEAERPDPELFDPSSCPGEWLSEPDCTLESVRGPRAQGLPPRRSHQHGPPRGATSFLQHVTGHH", "sequence of UniProt Q04912 (whole entry, looked up)": "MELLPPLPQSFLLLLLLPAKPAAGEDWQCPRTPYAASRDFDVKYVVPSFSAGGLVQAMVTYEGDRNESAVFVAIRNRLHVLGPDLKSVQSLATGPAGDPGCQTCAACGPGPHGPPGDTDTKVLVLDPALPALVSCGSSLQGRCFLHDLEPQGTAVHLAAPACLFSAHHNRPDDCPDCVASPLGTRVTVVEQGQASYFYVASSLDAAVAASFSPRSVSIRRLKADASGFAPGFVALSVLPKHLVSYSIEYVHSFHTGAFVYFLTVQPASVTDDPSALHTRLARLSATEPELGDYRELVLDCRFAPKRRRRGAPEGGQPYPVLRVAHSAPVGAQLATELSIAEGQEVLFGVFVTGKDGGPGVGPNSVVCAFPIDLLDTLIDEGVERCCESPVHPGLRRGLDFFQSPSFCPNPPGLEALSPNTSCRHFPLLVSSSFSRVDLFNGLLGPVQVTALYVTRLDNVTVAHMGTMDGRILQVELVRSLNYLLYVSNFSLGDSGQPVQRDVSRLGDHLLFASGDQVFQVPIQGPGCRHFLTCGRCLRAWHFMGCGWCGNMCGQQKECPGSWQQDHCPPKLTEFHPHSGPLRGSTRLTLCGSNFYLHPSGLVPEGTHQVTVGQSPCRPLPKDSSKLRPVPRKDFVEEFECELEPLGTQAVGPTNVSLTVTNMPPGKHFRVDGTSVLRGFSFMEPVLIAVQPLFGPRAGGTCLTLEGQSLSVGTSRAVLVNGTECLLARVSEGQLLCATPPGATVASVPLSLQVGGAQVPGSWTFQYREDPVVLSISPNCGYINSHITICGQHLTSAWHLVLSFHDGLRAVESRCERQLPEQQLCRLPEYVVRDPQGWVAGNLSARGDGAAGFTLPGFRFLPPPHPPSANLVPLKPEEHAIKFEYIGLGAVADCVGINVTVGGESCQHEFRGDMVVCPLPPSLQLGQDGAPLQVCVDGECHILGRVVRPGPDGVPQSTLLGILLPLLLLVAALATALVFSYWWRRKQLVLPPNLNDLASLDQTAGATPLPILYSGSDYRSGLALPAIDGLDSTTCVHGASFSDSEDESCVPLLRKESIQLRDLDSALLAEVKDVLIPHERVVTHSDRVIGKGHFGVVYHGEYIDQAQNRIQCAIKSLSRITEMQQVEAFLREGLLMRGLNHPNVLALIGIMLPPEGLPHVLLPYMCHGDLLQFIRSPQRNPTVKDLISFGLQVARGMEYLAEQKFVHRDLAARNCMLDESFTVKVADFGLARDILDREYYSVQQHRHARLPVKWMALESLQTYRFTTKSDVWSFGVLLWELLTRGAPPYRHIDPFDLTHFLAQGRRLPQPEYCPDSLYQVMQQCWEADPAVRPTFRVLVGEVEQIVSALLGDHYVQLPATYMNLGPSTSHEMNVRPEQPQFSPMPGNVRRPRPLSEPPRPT", "sequence of UniProt Q96NX5 (whole entry, looked up)": "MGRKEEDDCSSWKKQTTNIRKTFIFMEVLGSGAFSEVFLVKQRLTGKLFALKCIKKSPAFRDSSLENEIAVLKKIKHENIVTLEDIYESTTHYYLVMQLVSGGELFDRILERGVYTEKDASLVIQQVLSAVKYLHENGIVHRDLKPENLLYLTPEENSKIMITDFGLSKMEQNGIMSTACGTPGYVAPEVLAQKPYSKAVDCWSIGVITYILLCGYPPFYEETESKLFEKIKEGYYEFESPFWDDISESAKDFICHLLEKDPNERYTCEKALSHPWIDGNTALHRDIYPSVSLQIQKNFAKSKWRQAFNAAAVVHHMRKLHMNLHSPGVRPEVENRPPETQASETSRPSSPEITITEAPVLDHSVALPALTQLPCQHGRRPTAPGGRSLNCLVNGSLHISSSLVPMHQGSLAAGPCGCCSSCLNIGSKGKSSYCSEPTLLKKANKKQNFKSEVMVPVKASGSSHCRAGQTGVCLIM"}
{"data": "Study 1", "Compound": "CN1CCN(c2cnc3c(C4CCN(C(=O)c5ccc(OC(F)(F)F)cc5N)CC4)ncnc3c2)CC1", "tested at": "1 µM"}
{"target": "HIPK4 (Homo sapiens, UniProt Q8NE63)", "observed": "cell-free assay", "method": "competition with immobilised ligand", "remaining binding": "100%"}
{"target": "STK17A (Homo sapiens, UniProt Q9UEE5)", "observed": "cell-free assay", "method": "competition with immobilised ligand", "remaining binding": "92%"}
{"target": "Ribosomal protein S6 kinase alpha-6, N-terminal kinase domain (RPS6KA6, Homo sapiens, UniProt Q9UK32)", "observed": "cell-free assay", "method": "competition with immobilised ligand", "remaining binding": "100%"}
{"target": "ULK1 (Homo sapiens, UniProt O75385)", "observed": "cell-free assay", "method": "competition with immobilised ligand", "remaining binding": "100%"}
{"target": "PIK3C2G (Homo sapiens, UniProt O75747)", "observed": "cell-free assay", "method": "competition with immobilised ligand", "remaining binding": "100%"}
{"target": "CSNK1G3 (Homo sapiens, UniProt Q9Y6M4)", "observed": "cell-free assay", "method": "competition with immobilised ligand", "remaining binding": "100%"}
{"target": "TLK2 (Homo sapiens, UniProt Q86UE8)", "observed": "cell-free assay", "method": "competition with immobilised ligand", "remaining binding": "89%"}
{"target": "CAMK1G (Homo sapiens, UniProt Q96NX5)", "observed": "cell-free assay", "method": "competition with immobilised ligand", "remaining binding": "100%"}
{"target": "STK32A (Homo sapiens, UniProt Q8WU08)", "observed": "binding", "method": "competition with immobilised ligand", "remaining binding": "94%"}
{"target": "PRKCI (Homo sapiens, UniProt P41743)", "observed": "cell-free assay", "method": "competition with immobilised ligand", "remaining binding": "77%"}
{"target": "Insulin receptor (INSR, Homo sapiens, UniProt P06213)", "observed": "cell-free assay", "method": "competition with immobilised ligand", "remaining binding": "88%"}
{"target": "Tyrosine-protein kinase ABL1, phosphorylated (ABL1, Homo sapiens, UniProt P00519, H396P)", "observed": "cell-free assay", "method": "competition with immobilised ligand", "remaining binding": "100%"}
{"target": "ACVRL1 (Homo sapiens, UniProt P37023)", "observed": "binding", "method": "competition with immobilised ligand", "remaining binding": "94%"}
{"target": "CDC42BPG (Homo sapiens, UniProt Q6DT37)", "method": "competition binding", "remaining binding": "100%"}
{"target": "TRPM6 (Homo sapiens, UniProt Q9BX84)", "observed": "cell-free assay", "method": "competition with immobilised ligand", "remaining binding": "100%"}
{"data": "Study 2", "target": "Synaptic vesicular amine transporter (SLC18A2, Homo sapiens, UniProt Q05940)", "mode": "inhibitor", "setting": "literature data", "sequence of UniProt Q05940 (whole entry, looked up)": "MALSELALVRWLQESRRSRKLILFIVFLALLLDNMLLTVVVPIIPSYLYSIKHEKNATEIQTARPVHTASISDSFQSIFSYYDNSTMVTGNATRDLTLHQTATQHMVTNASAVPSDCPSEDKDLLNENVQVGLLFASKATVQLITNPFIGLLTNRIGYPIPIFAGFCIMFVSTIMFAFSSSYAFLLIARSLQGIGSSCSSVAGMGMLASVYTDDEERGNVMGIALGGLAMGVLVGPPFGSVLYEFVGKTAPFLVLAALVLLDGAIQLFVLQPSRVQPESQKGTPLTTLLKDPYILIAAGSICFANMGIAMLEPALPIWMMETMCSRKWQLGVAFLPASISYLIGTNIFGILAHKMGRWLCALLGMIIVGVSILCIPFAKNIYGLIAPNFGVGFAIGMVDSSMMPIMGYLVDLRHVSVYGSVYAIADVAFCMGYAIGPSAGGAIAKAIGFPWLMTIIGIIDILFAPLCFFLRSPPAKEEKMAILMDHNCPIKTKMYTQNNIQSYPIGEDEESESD"}
{"Compound": "CN(C)C(=N)N=C(N)N", "IC50": "> 10 µM"}
{"Compound": "Fc1ccc([C@@H]2CCNC[C@H]2COc2ccc3c(c2)OCO3)cc1", "IC50": "6.7 µM"}
{"Compound": "CN1CCN(CCCN2c3ccccc3Sc3ccc(Cl)cc32)CC1", "IC50": "3.72 µM"}
{"Compound": "Cc1ccnc2c1NC(=O)c1cccnc1N2C1CC1", "IC50": "> 10 µM"}
{"Compound": "CN[C@H]1CC[C@@H](c2ccc(Cl)c(Cl)c2)c2ccccc21", "IC50": "1.71 µM"}
{"Compound": "CCN(CCO)CCCC(C)Nc1ccnc2cc(Cl)ccc12 (centres unmarked)", "IC50": "2.97 µM"}
{"Compound": "C=CC(=O)Nc1cc(Nc2nccc(-c3cn(C)c4ccccc34)n2)c(OC)cc1N(C)CCN(C)C", "IC50": "1.05 µM"}
{"data": "Study 3", "SMILES": "Cc1ccc(NC(=O)c2ccnc(C(F)(F)F)c2)cc1-c1cc(OCCO)nc(N2CCOCC2)c1", "tested at": "1 µM"}
{"target": "NUAK1 (Homo sapiens, UniProt O60285)", "method": "competitive binding panel", "refers to": "ARK5", "reference": "vehicle", "remaining binding [%]": 98}
{"target": "ACVRL1 (Homo sapiens, UniProt P37023)", "method": "competitive binding panel", "reference": "vehicle", "remaining binding [%]": 100}
{"target": "MAP2K7 (Homo sapiens, UniProt O14733)", "method": "competitive binding panel", "refers to": "MKK7", "reference": "vehicle", "remaining binding [%]": 100}
{"target": "ABL1 (Homo sapiens, UniProt P00519)", "method": "competitive binding, scanMAX", "setting": "phosphorylated, 1000 nM", "remaining binding [%]": 74}
{"target": "MST1R (Homo sapiens, UniProt Q04912)", "method": "competitive binding panel", "reference": "vehicle", "remaining binding [%]": 87}
{"target": "RPS6KA5 (Homo sapiens, UniProt O75582)", "method": "competitive binding scan", "setting": "N-terminal kinase domain 1", "remaining binding [%]": 93}
{"data": "Study 4", "organism": "Plasmodium berghei", "mode": "inhibitor", "cell line": "Huh-7", "strain": "GFP-expressing, liver stage", "tested at": "10 µM", "time": "24 h", "reference": "untreated control"}
{"Compound": "N=C(N)NC(=N)NCCc1ccccc1", "infection rate": "79.7%"}
{"Compound": "Cc1ccc(/C(=C\\CN2CCCC2)c2ccccn2)cc1", "infection rate": "76.8%"}
{"Compound": "C[C@@H]1O[C@@H](OC[C@H]2O[C@@H](Oc3c(-c4ccc(O)c(O)c4)oc4cc(O)cc(O)c4c3=O)[C@H](O)[C@@H](O)[C@@H]2O)[C@H](O)[C@H](O)[C@H]1O", "infection rate": "102%"}
{"Compound": "CN(C)CCc1c[nH]c2ccc(Cn3cncn3)cc12", "infection rate": "117%"}
{"Compound": "CC(CN1c2ccccc2Sc2ccccc21)N(C)C (centres unmarked)", "infection rate": "69.9%"}
{"Compound": "Cc1ccc(N(CC2=NCCN2)c2cccc(O)c2)cc1", "infection rate": "84.2%"}
{"Compound": "CC(C(=O)O)c1ccc(C(=O)c2cccs2)cc1 (centres unmarked)", "infection rate": "109%"}
{"Compound": "Cc1nc2ccccn2c(=O)c1CCN1CCC(C(=O)c2ccc(F)cc2)CC1", "infection rate": "85.1%"}
{"Compound": "COc1cc2nc(N3CCN(C(=O)c4ccco4)CC3)nc(N)c2cc1OC", "infection rate": "74.5%"}
{"Compound": "Nc1c2c(nc3ccccc13)CCCC2", "infection rate": "52.9%"}
